Measurements collected from several papers.
Lines come from different studies, so protocols differ. ± marks the error that the study gave.
Cell line: MCF7

Structure (SMILES)	effect on	method	sample	time	notes	IC50
CC(=O)N1N=C(C)CC1c1ccccc1 (stereo not shown)	cell growth or viability	LDH	–	–	–	6.2 µM
Cc1c(C)c(C)[c-](C)c1C.O=[N+]([O-])c1ccnc(-c2[c-]cccc2)c1.[Cl-].[Ir+3]	–	SRB	–	24 h	72 h recovery	11.4 ± 0.4 µM
NS(=O)(=O)c1ccc(/N=N/c2ccc(O)c(/C=N/CCc3c[nH]c4ccccc34)c2)cc1	cell growth or viability	MTT	–	48 h	–	9.02 µM
NC1CCCCC1N.O=C(CCCc1ccccc1)[O][Pt]1([O]C(=O)CCCc2ccccc2)[O]C(=O)C(=O)[O]1	cytotoxicity	–	–	72 h	–	2.28 ± 0.46 µM
CC(=O)N[C@H](CCCNC(=N)N)C(=O)N[C@@H](CC(=O)N[C@H](Cc1ccccc1)C(N)=O)c1ccc2ccccc2c1	cell growth or viability	ATP luminescence	–	72 h	–	5.11 µM
COc1c(O)cc2oc3cc(O)c4c(c3c(=O)c2c1CCC(C)(C)O)OC(C)(C)CC4	cell growth or viability	–	–	48 h	–	> 40 µM
O=C(/C=C/c1ccccc1)c1ccc(OCc2cn(CCN3C(=O)c4cccc5cccc(c45)C3=O)nn2)cc1	cell growth or viability	MTT	–	24 h	–	> 100 µM
O=C(NNc1nc(-c2ccccc2)cs1)c1cc2ccc(O)cc2oc1=O	cell growth or viability	SRB	–	72 h	–	10 µM
COc1cc(OC)c(C(C)=O)c(OC)c1	cell growth or viability	MTT	–	48 h	–	76.3 µM
C[C@@H]1O[C@@H](OC(=O)/C=C/c2ccc(O)c(O)c2)[C@H](OC(=O)/C=C/c2ccc(O)c(O)c2)[C@H](O)[C@H]1O	cell growth or viability	MTT	–	48 h	serum-free	17.1 µM
CCN1CCC2(CC1)C/C(=N\NC(=O)Nc1ccc(Cl)cc1)c1ccccc1O2	cell growth or viability	MTT	–	48 h	–	23.6 µM
C/C(=N\NC(N)=S)c1c(O)c2ccccc2oc1=O	cell growth or viability	MTT	–	48 h	–	8.1 µM
COC(=O)CNc1cc(C[S+]([O-])c2ccc3cc(Br)ccc3c2)ccc1OC (stereo not shown)	cell growth or viability	MTS	–	48 h	–	1.73 µM
CCCCCCCCCCCCCCCOC(=O)/C=C/c1ccc(O)cc1	cell viability	MTT	–	48 h	serum-free medium	0.97 ± 0.1 µg/mL
CC(=O)O[C@H]1CC[C@]2(C)[C@H]3CC=C4[C@@H]5CC(C)(C)CC[C@]5(C(=O)O)CC[C@@]4(C)[C@]3(C)CC[C@H]2C1(C)C	cell growth or viability	SRB	–	–	–	37.6 µM
C/C(=N\NC(=S)N(C)C)c1ccc(S(=O)(=O)N2CCC(C)CC2)cc1	cell growth or viability	MTT	–	–	–	19.3 µM
CC(=O)N[C@@H]1[C@@H](OC(C)=O)[C@H](OC(C)=O)[C@@H](COC(C)=O)O[C@H]1Sc1nnc(-c2cc3ccccc3[nH]2)n1-c1ccc(Cl)cc1	cell growth or viability	MTT	–	–	–	12.7 µM
CCCCn1cc(C(=O)O)c(=O)c2cc(F)c(Nc3ccc(OC)cc3)c([N+](=O)[O-])c21	cell growth or viability	SRB	–	72 h	–	8.1 µg/mL
CCCCn1c(-c2cccnc2)nc(-c2ccc(C)cc2)c1-c1ccc(C)cc1	cell growth or viability	SRB	–	24 h	–	81.7 µM
O=C1C=C(c2coc3cc(O)cc(O)c3c2=O)C(=O)C([N+](=O)[O-])=C1O	cell growth or viability	MTT	–	72 h	–	45.9 µM
Cn1[c]([Ir-3]234([NH3+])[n]5c6ccc5C(c5c(F)c(F)c(F)c(F)c5F)=C5C=CC(=[N+]52)C(c2c(F)c(F)c(F)c(F)c2F)=c2ccc([n]23)=C(c2c(F)c(F)c(F)c(F)c2F)C2=[N+]4C(=C6c3c(F)c(F)c(F)c(F)c3F)C=C2)[n+](C)c2ccccc21.F[P-](F)(F)(F)(F)F	cell growth or viability	MTT	–	72 h	–	0.71 µM
NS(=O)(=O)c1ccc(/N=N/c2ccc(O)c(/C=N/c3cccc(O)c3)c2)cc1	cell growth or viability	MTT	–	48 h	–	25.4 µM
CSc1nc(Nc2ccc(/C(C)=N/NC(=O)c3ccc([N+](=O)[O-])cc3[N+](=O)[O-])cc2)c(C#N)c(-c2ccccc2)n1	cell growth or viability	MTT	–	48 h	–	1.54 µM
CC1(C)CC(=O)C2=C(C1)OC(N)=C(C#N)C2c1ccccc1F (stereo not shown)	cell growth or viability	MTT	–	24 h	–	225 µM
CSc1nc(Nc2ccc(C(=O)N/N=C/c3ccc(Cl)cc3Cl)cc2)c(C#N)c(-c2ccccc2)n1	cell growth or viability	MTT	–	48 h	–	26.8 µM
CC(C)(C)c1ccc(C[n+]2cn(C3CCCC3)c3ccccc32)cc1	cell growth or viability	MTT	–	48 h	–	22 µM
Cc1c(C)n(-c2c(C(C)C)cccc2C(C)C)c(=[Se])n1-c1c(C(C)C)cccc1C(C)C.[Cl][Ag]	cell growth or viability	MTT	–	72 h	–	1.6 µM
[Fe+2].c1ccc(P(=NCc2ccccn2)(c2ccccc2)[c-]2cccc2)cc1.c1ccc(P(=NCc2ccccn2)(c2ccccc2)[c-]2cccc2)cc1	cell growth or viability	MTT	–	74 h	–	15 µM

Structure (SMILES)	effect on	method	sample	time	notes	IC50
CCCCCCCCn1c(-c2cccnc2)nc(-c2ccc(C)cc2)c1-c1ccc(C)cc1	cell growth or viability	SRB	–	24 h	–	92.1 µM
CC(=O)[O][Ag]=[c]1n(C)ccn1CC(O)c1ccccc1 (stereo not shown)	cell viability	MTT	–	72 h	–	18.4 ± 0.6 µM
CCC(C(=O)O)C1CCC(C)C(C(C)C(O)C(C)C(=O)C(CC)C2OC3(C=CC(NCc4cn(CCOCCOCCOC)nn4)C4(CCC(C)(C5CCC(O)(CC)C(C)O5)O4)O3)C(C)CC2C)O1 (stereo not shown)	cell growth or viability	resazurin	–	72 h	–	> 12.5 µM
O=C(NCCCCCCCCNc1n[n+]([O-])c2ccccc2[n+]1[O-])C(F)(F)F	cytotoxicity	MTT	–	24 h	normoxia	60.6 ± 6.2 µM
CCOC(=O)CN1C=C(c2cc(Br)ccc2O)Nc2ccccc21	cell growth or viability	MTT	–	48 h	–	62.4 µM
CC1(C)O[C@@H]1CC[C@](C)(O)[C@H]1CC[C@]2(C)[C@@H]1CC[C@@H]1[C@@]3(C)CCC(=O)C(C)(C)[C@@H]3CC[C@]12C	cell growth or viability	MTT	–	–	–	> 30 µM
CC1CCc2c(sc3ncnc(Nc4ccc(Nc5ncnc6sc7c(c56)CCC(C)C7)cc4)c23)C1 (stereo not shown)	cell growth or viability	MTT	–	–	–	56.2 µM
CCC(CCC(C)C1CCC2C3CCC4=CC(=O)CCC4(C)C3CCC12C)C(C)C (stereo not shown)	cell growth or viability	resazurin	–	24 h	–	169 µg/mL
O=C(NCCCCCNc1n[n+]([O-])c2ccccc2[n+]1[O-])C(F)(F)F	cytotoxicity	MTT	10% FBS medium	6 h + 18 h	hypoxia 3% O2	39.9 ± 10.5 µM
CCN(CC)c1ccc2c(c1)[O][Pt-2]1([Cl])[N+](=C2)c2ccccc2[NH+]1c1ccccc1 (stereo not shown)	cell growth or viability	MTT	–	–	–	14 µM
O=C(O[C@@H]1Cc2c(O)cc(O)cc2O[C@@H]1c1cc(O)c(O)c(O)c1)c1cc(O)c(O)c(O)c1	cell growth or viability	CCK-8	–	24 h	–	72.8 µM
C[C@@H]1CC[C@@H]([C@](O)(COCc2ccccc2)Cn2cnc3ccccc32)[C@H](OCc2ccccc2)C1	cell growth or viability	MTT	–	72 h	–	5.7 µM
CN(C)CCCO/N=C1/C=C2CCC3C(CC[C@]4(C)/C(=C/c5ccccn5)CCC34)[C@@]2(C)CC1 (stereo partly shown)	cell growth or viability	MTT	–	72 h	–	15.1 µM
NNC(=O)Cn1ncc2c3ccccc3n(CC(=O)NN)c2c1=O	cell growth or viability	MTT	–	48 h	–	5.35 µM
CCOC(=O)C1=C(COCc2cn(CCN3C(=O)C(=O)c4cc(Cl)ccc43)nn2)N=C2Sc3ccccc3N2C1c1cccc(Cl)c1 (stereo not shown)	cell growth or viability	MTT	–	–	–	> 100 µM
O=C(Cc1ccccc1)NC(=S)Nc1nccs1	cell growth or viability	MTT	–	48 h	–	55.4 µM
CCCC/C=N/NC(=O)c1cc2cc(Nc3nccc(-c4cccnc4)n3)ccc2[nH]1	cell growth or viability	MTT	–	48 h	–	> 20 µM
Cc1ccc(S(=O)(=O)[O][Re-2]2(=[C]=O)(=[C]=O)(=[C]=O)[n+]3c(C)cc(-c4ccccc4)c4ccc5c(-c6ccccc6)cc(C)[n+]2c5c43)cc1	cell growth or viability	resazurin	–	72 h	–	0.337 µM
COc1ccc2cc3[n+](cc2c1OCc1cn(Cc2ccc(OC(F)(F)F)cc2)nn1)CCc1cc2c(cc1-3)OCO2	cell growth or viability	MTT	–	–	–	36.7 µM
COC(=O)c1ccc(-n2nc(C(F)(F)F)cc2-c2cc(OC)c(OC)c(OC)c2)cc1	cell growth or viability	SRB	–	–	–	1.3 µM
CCN(CC)c1ccc2c(c1)[O][Pd]([CH2]C#N)[N](c1ccccc1C)c1ncccc1N=C2	cell growth or viability	MTT	–	48 h	–	32.1 µM
CCCCCC(C)n1c(-c2cccnc2)nc(-c2ccc(C)cc2)c1-c1ccc(C)cc1 (stereo not shown)	cell growth or viability	SRB	–	24 h	–	48.1 µM
O=C(CNc1nnc(-c2ccccc2)s1)N1CCC(=C2c3ncccc3CCc3cc(Cl)cc(Br)c32)CC1	cell growth or viability	SRB	–	–	–	110 µM
COc1ccc2cc3[n+](cc2c1OCc1cn(Cc2c(F)cccc2F)nn1)CCc1cc2c(cc1-3)OCO2	cell growth or viability	MTT	–	–	–	174 µM
CSC(=NN=C(C)c1ccc(S(=O)(=O)N2CCC(C)CC2)cc1)N(C)C	cell growth or viability	MTT	–	–	–	4.31 µM
COc1ccc(CNC[C@@](O)(COCc2ccc(F)cc2)[C@@H]2CC[C@@H](C)C[C@H]2OCc2ccc(F)cc2)cc1	cell growth or viability	MTT	–	72 h	–	0.9 µM
C=CC(OC(C)=O)c1cc(OC)c(OC(C)=O)c(OC)c1 (stereo not shown)	–	MTT	–	24 h	–	> 50 µM
